Measurements from different studies.
WT1: WT1 323-438 (Homo sapiens, UniProt P19544)
Sequence of UniProt P19544 (whole entry, looked up): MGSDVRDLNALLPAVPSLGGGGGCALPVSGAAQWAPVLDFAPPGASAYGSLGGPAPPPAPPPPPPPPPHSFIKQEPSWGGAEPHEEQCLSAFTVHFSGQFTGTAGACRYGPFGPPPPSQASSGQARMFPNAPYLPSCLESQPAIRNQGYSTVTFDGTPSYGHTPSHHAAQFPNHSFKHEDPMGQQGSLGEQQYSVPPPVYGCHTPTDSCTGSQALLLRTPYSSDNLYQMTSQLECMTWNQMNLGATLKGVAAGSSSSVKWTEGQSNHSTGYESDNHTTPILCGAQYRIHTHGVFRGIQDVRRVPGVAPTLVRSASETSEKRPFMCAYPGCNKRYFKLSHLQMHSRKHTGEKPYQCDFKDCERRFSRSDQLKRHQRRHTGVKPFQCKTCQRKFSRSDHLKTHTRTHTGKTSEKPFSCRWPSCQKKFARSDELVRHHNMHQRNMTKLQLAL
IGF2BP2: IGF2BP2 1-599 (Homo sapiens, UniProt Q9Y6M1)
Sequence of UniProt Q9Y6M1 (whole entry, looked up): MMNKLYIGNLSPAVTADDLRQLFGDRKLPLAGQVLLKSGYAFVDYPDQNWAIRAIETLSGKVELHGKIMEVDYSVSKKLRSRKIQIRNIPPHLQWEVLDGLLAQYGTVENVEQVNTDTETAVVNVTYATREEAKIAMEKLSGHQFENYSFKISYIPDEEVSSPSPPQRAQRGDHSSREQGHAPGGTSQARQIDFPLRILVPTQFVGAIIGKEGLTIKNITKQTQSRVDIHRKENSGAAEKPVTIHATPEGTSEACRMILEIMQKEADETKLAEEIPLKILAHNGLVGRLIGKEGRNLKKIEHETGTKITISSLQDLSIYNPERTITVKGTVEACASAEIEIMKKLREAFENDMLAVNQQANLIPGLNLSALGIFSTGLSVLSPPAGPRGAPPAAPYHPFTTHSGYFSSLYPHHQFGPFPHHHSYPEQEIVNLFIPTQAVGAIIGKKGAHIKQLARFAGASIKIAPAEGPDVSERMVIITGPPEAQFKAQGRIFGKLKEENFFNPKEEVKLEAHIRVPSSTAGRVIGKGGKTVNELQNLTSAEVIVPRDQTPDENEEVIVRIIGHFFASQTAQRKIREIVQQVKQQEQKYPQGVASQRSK
PARP1: PARP1 1-1014 (Homo sapiens, UniProt P09874)
Sequence of UniProt P09874 (whole entry, unmodified, looked up): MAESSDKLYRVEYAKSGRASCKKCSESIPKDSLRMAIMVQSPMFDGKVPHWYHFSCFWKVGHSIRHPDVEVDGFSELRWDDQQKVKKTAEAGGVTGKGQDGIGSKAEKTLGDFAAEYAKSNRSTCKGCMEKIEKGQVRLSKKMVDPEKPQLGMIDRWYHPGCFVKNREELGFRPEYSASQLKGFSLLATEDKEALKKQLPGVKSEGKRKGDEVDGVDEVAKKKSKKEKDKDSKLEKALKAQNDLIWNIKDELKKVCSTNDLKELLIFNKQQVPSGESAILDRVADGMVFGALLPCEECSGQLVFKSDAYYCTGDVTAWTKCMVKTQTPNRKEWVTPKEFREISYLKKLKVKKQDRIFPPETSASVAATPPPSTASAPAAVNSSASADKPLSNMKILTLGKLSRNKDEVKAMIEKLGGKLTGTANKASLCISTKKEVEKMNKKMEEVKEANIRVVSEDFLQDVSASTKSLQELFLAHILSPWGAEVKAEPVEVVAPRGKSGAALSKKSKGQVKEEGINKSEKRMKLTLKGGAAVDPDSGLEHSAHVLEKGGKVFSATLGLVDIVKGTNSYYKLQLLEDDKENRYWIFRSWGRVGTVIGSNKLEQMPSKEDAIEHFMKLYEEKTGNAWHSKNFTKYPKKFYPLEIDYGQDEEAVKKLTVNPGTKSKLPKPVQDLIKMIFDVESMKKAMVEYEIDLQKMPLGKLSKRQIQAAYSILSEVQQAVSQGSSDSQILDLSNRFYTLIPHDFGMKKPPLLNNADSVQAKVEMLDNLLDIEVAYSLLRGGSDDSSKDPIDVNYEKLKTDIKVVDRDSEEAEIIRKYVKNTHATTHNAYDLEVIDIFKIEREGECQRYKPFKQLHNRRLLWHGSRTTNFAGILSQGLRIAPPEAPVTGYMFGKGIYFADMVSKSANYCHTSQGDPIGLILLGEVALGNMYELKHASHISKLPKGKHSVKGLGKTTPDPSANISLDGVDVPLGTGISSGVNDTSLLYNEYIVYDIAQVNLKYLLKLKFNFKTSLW
Sequence of UniProt P12383 (whole entry, looked up): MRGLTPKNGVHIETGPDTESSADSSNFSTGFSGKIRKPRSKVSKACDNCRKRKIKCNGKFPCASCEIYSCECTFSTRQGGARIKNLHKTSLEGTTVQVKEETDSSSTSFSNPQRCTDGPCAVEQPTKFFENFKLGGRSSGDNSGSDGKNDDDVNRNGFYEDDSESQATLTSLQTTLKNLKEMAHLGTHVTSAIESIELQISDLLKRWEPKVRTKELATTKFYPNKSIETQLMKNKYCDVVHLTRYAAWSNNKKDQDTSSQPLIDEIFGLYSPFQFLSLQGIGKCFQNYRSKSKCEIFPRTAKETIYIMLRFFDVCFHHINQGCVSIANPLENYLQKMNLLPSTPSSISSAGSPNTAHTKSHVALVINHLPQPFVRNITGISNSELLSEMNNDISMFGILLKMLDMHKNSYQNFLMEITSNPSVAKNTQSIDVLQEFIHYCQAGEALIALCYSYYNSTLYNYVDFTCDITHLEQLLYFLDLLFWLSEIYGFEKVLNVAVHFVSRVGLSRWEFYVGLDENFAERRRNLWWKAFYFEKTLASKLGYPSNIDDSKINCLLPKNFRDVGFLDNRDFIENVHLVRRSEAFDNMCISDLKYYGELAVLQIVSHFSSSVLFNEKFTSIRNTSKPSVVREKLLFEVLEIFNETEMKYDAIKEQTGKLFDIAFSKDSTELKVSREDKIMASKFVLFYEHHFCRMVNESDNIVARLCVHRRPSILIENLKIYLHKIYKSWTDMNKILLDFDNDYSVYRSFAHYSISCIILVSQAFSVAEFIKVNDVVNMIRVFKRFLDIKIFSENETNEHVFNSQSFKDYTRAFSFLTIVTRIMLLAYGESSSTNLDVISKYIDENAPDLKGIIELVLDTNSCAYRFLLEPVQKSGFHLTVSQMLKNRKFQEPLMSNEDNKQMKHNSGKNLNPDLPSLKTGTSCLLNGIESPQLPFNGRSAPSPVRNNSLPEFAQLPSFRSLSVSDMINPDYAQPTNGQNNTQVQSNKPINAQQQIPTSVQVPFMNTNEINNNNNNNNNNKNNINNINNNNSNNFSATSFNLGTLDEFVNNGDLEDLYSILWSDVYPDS
Sequence of UniProt P05846 (whole entry, looked up): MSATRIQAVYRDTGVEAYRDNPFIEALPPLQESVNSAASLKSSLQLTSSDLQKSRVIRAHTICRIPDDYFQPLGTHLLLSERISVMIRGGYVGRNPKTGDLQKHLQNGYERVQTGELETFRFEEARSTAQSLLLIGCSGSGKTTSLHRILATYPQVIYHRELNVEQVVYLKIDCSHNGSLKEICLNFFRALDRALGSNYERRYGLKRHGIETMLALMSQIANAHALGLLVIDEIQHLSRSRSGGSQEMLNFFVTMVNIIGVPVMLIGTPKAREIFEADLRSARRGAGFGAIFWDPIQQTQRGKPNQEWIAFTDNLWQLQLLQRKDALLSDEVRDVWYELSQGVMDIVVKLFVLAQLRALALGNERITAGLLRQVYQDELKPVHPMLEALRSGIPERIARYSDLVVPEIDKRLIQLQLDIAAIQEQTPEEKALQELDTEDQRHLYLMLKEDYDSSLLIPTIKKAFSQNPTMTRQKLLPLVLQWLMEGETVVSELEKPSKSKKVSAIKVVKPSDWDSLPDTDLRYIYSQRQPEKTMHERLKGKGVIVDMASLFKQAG
Sequence of UniProt Q6I576 (whole entry, looked up): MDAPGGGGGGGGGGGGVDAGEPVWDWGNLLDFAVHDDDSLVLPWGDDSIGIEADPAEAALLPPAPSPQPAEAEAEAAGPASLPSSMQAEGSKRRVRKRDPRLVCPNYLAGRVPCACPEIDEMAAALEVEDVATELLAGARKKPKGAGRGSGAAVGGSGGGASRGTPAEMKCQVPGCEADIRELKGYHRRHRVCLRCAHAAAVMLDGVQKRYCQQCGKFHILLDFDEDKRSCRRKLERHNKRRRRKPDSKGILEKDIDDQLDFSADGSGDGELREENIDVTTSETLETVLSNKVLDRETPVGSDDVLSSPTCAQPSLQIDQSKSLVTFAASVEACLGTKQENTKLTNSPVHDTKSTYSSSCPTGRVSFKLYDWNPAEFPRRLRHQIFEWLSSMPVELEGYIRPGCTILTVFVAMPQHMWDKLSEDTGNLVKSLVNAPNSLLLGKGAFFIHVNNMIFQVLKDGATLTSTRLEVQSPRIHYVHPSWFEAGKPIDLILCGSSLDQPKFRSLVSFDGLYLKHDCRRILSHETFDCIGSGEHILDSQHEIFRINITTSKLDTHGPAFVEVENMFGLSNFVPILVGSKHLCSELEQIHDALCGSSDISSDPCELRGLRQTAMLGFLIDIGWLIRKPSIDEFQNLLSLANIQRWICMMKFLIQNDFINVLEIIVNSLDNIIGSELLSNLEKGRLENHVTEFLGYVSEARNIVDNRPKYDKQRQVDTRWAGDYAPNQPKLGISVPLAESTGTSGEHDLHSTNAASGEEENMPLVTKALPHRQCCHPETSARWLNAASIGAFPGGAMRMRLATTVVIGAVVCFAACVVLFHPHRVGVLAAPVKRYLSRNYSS
Sequence of UniProt Q5VWX1 (whole entry, looked up): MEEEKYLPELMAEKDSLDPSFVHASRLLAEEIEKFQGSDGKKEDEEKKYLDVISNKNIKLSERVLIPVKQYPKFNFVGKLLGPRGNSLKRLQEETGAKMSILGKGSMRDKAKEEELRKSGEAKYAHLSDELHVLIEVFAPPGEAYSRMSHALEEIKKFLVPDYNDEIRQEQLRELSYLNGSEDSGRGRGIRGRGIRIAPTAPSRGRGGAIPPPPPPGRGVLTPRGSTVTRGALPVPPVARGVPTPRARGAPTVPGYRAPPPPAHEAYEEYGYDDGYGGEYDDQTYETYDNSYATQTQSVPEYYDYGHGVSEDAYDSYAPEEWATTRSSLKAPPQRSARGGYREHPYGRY
Sequence of UniProt Q7A225 (whole entry, looked up): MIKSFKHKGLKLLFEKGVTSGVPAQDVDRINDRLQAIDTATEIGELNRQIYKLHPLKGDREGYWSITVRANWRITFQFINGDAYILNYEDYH

Strand	target	assay	test system	setting	binding
GGGTTGCGGCCGCTTGGG (dsDNA; blunt, 5'-phosphate)	PARP1 full length assumed W318R (Homo sapiens, UniProt P09874)	stopped-flow fluorescence anisotropy	double-stranded DNA, one strand shown	–	binds
TAAGGCGCAACACAACGTCTCGTACGGTTGTAG (dsDNA; blunt)	SPL9 full length assumed (Oryza sativa, UniProt Q6I576)	EMSA	double-stranded DNA, one strand shown	–	binds
TAAGAGAATATTTGAAAATTGTCTATGTAGATGAACATGTATTTGAAAATTGCGTAA (dsDNA)	EIN3 1-628 (Arabidopsis thaliana, UniProt O24606)	EMSA	double-stranded DNA, one strand shown	–	binds
AAACTTCCGTGGAAAACC (dsDNA)	PDR1 1-207 (Saccharomyces cerevisiae, UniProt P12383)	competition	double-stranded DNA, one strand shown	–	binds
ACCAAGCGGTATGCGGAGCCGCCGCCGCCGCCG (dsDNA; blunt)	WT1	EMSA	double-stranded DNA, one strand shown	–	no binding
GAGCTGCAAGTGGATATTTGGACCTCTTTGAGGTCTTCGTTGGAAACGGGATTTCCTCATATAATGTTACACAGAAGAATTCTCAGTAACTTATTTGTGGTGTGTGTATTCAACTCACAGAGGTGAACCTTCCTTCAGAAAGAGCAGATTTGAAACACTCTTTTTGTACCC (dsDNA)	CENP-H/CENP-K 1-247 / 1-269 (Homo sapiens)	EMSA	double-stranded DNA, one strand shown	–	no binding
GGAATTGGTCAGTGCTAATCCTTGGTCAGTGCAGCTA (dsDNA (Caenorhabditis elegans); blunt)	him-8 140-235 (Caenorhabditis elegans, UniProt O18068)	streptavidin pull-down, western blot	double-stranded DNA, one strand shown	1 µM	no binding
ATCTTTTTTACTCTAGGAAGTTGACATTCTTTGTCCATTTCCAAAAGAA (dsDNA)	WRKY23 (Oryza sativa, UniProt Q7E0X1)	EMSA	double-stranded DNA, one strand shown	–	binds
DNA 1 TAAATTGTAAGCGTTAATATTTTGTTAAAATTCGCGTTAAATTTTTGTTAAATCAGCTCATTTTTTAACCAATAGGCCGAAATCGGCAAAATCCCTTATA / DNA 2 TAACAAAAATTTAACGCGAATTTTAACAAAATATTAACGCTTACAATTT (dsDNA; 3' overhang)	protein full length assumed (Mycosarcoma maydis, UniProt Q8NJ74)	EMSA	–	–	binds
GGTTAGGGTTAGGGTTAGGGTTAG (ssDNA; 5'-phosphate)	Pot1b 1-300 (Mus musculus, UniProt H7BX60)	EMSA	single-stranded DNA	–	binds
ATCCGAGATGGTACTTTGTGTCTCCTGCTCTGTCAGCAGGGCACTGTACTTGCTGATACCAGGGAATGTTTGTTCTTAAATACCATCATTCCGGACGTGTTTGCCTTGGCCAGTTTTCCATGTACATGCAGAAAGAAGTTTGGACTGATCAATACAGTCCTCTGCCTTTAAAGCAATAGGAAAGAT (dsDNA)	FOXA1 141-274 (Homo sapiens, UniProt P55317)	EMSA	double-stranded DNA, one strand shown	–	binds
ACCAAGCGTGATGCGGAGCCGCCGCCGCCGCCG (dsDNA; blunt)	WT1	EMSA	double-stranded DNA, one strand shown	–	no binding
AACUACAGGACUAUUUGACAUCAUAAUAAA (ssRNA)	IGF2BP2	pull-down	RNA	–	binds
GCCCCCACTTACTAACCCCCT (dsDNA)	Auxin response factor 1-610 (Capsicum annuum, UniProt A0A1U8F1G4)	EMSA	double-stranded DNA, one strand shown	–	no binding
TGTATATATAAAGAAGGGAGCTGGCTCTAGAGGTAAGCCAT (dsDNA)	BZIP domain-containing protein full length assumed (Triticum aestivum, UniProt A0A3B6EMK6)	EMSA	double-stranded DNA, one strand shown	–	binds
UUUUUUU (ssRNA)	CP29A 97-176 (Arabidopsis thaliana, UniProt Q43349)	NMR titration	RNA	–	binds
CAGCCAACTAAACTA (dsDNA)	tnsC 1-503 (Escherichia coli, UniProt P05846)	EMSA	double-stranded DNA, one strand shown	with: ATP 0.33 mM	no binding
GGGGTTCCCCCCAACCTA (dsDNA)	Auxin response factor 1-610 (Capsicum annuum, UniProt A0A1U8F1G4)	EMSA	double-stranded DNA, one strand shown	–	no binding
CAGCGTCACATGACGGGAATTTTCACGTCTTTTCAGCCCT (dsDNA)	Hsf17 full length assumed (Zea mays, UniProt A0A5J6CYG6)	competition	double-stranded DNA, one strand shown	–	binds
GACAAAAGATGTTGACCTTCACGCCTCTCTTCTTAGACCCCACGCGCCACACTCTCACGGTGAGAACATAAATATCAATCTCTCTTTTACCGCCTCCTACCCATTTATCTCTCTCTTTCTCAAAACCTTTCAGTCAAAATTCTCC (dsDNA)	WRKY40 full length assumed (Arabidopsis thaliana, UniProt Q9SAH7)	EMSA	double-stranded DNA, one strand shown	–	binds
CAGTAATCAACCGGAAGTTATAAAGCATGA (dsDNA)	Etv1 full length assumed (Mus musculus, UniProt P41164)	EMSA	double-stranded DNA, one strand shown	not purified	binds
CGGGAACUCGCGUAGACACGCCCG (structured RNA)	NFKB1 41-365 (Homo sapiens, UniProt P19838)	EMSA	folded RNA	–	binds
AAGACTTGGAATATAATAATTATTCATTTAAA (dsDNA)	hb-1 full length assumed (Solanum lycopersicum, UniProt B6GVA3)	EMSA	double-stranded DNA, one strand shown	–	binds
CCAATGTGTAACAAGTAACTTATGACAACACAAATTTCTTCTTTGGTAGAAAACAAACGGGTAAGTAAAAAGAAAAGAAAAAAAGAAGTGAGTGAGAAGAGAGTGTAAGTATAAATAAAAGAAGCACCGCCCTAATCGACCATTCACAACGATGACATTCAAACACTCTTCAG (dsDNA)	WRKY18 full length assumed (Arabidopsis thaliana, UniProt Q9C5T4)	EMSA	double-stranded DNA, one strand shown	–	no binding

Strand	target	assay	test system	setting	binding
ACCAAGCGGGTTGCGGAGCCGCCGCCGCCGCCG (dsDNA; blunt)	WT1	EMSA	double-stranded DNA, one strand shown	–	no binding
TTATGGGCGTGGGCCCTACGCGTGTGCGCACGAGGAGGTGAGGTGA (dsDNA)	BZR1 1-298 (Oryza sativa, UniProt Q7XI96)	EMSA	double-stranded DNA, one strand shown	–	binds
TCAAGCTTGGACATGAGCAGTGTCGGTTATGGCCAACGTTCAGTAC (dsDNA)	Auxin response factor 1-896 (Populus tomentosa, UniProt A0A8X8DKC4)	EMSA	double-stranded DNA, one strand shown	–	binds
GCAGCCCTGGTTAAAAACAAGGTTTATAAATATTGGTTTAAAAGCAGGTTAAAAGACAGGTTAGCGGTGG (ssDNA)	trfA 98-382 G254D/S267L/R156E (Escherichia coli, UniProt P07676)	SPR	single-stranded DNA	–	no binding
AATTACTTAGAACTCTCACATTTAACCACGTAATGATCATATCAACGGTGTTATCCAT (dsDNA)	BZIP12 full length assumed (Oryza sativa, UniProt Q0JHF1)	EMSA	double-stranded DNA, one strand shown	–	no binding
AAAGAAAAAGGGATCGAACTTTTGACATTCGATCCCTTTTTCTGTAATCTGTTTCGTGCGTTCTTTGCTAAGATACAGACCCTAGACAAGTCATATCTTAGCAAAGGGTAGCTAGTAATGCAAGAGATTGCGAAGCGTCCCTACTACCAAAAAACCATTCAACGACGTAAACAGACAAACGCAAACCTTAAATTAGACG (dsDNA)	ihfA/ihfB 1-98; 1-95 (Aggregatibacter actinomycetemcomitans)	EMSA	double-stranded DNA, one strand shown	–	no binding
AUACAG (ssRNA)	SART3 697-786 (Homo sapiens, UniProt Q15020)	ITC	RNA	–	no binding
AAATGTAGATTGAAGATGTTGACTTTCTTCACCCCAGTCTATTA (dsDNA)	WRKY domain-containing protein 1-700 (Vitis vinifera, UniProt A0ABY9BSD8)	EMSA	double-stranded DNA, one strand shown	–	binds
GGGTTGCGGCCGCTTGGG (dsDNA)	PARP1	fluorescence polarization	double-stranded DNA, one strand shown	stopped-flow	binds
TTTTTTTTTTTTTTTTTTTT (ssDNA)	priA full length assumed (Escherichia coli, UniProt P17888)	UV photo-cross-linking	single-stranded DNA	no nucleotide	binds
TCGGTACCCGTGGATC (dsDNA)	protein full length assumed D348A (Bacillus pumilus, UniProt A3FMN7)	EMSA	double-stranded DNA, one strand shown	–	binds
CTTATTTCTTCTTCAACACGGTTTAA (dsDNA)	NAC104 full length assumed (Arabidopsis thaliana, UniProt Q8GWK6)	EMSA	double-stranded DNA, one strand shown	–	binds
GATTTGCTAAAGATACTTGTCCTGTGGAA (dsDNA)	Uncharacterized protein 1-360 (Prunus persica, UniProt M5W9R3)	competition	double-stranded DNA, one strand shown	with: cold mutant probe	no binding
GAGGGCTATAGATGCTCTAACAGACTCAGTTTAGGCCCGC (dsDNA)	Transcription factor 1-552 (Triticum aestivum, UniProt G9DR80)	EMSA	double-stranded DNA, one strand shown	–	binds
CCCCCCUUUCACGUUCACUCUGUCU (ssRNA)	IGF2BP2	fluorescence polarization	RNA	NaCl 150 mM	binds
TTTTTTTTTTTTTTTTTTTTTTTTTTTTTTTTTTTTTTTTTTTTTTTTTTTTTTTTTTTTTTTTT (ssDNA)	yoaA/holC/ssb 1-636; 1-147; 2-178 (Escherichia coli)	EMSA	single-stranded DNA	with: ATPγS	binds
CGTTTGTCGCTGTCACGATGTGGACCGTTCTTCTTTATTTTCACGTGGACCGACTTAATTACCTTCTTTCATTCTTGTTATTTCAATATTTTTTACGTCATTTAAACTCCACTTTACCAAAATAATTTATTTCATTCTTTGAGAGCATCAATTATCAAATAATTCAATTGTCTTTTTTCGTGATAGTTGAATAAGGGAC (dsDNA)	WRKY60 full length assumed (Arabidopsis thaliana, UniProt Q9SK33)	EMSA	double-stranded DNA, one strand shown	–	no binding
GCTGGCTTCGTAAGAAGCCAGCTCGCGGTCAGCTTGCTGACCGCG (DNA; dumbbell hairpin, nicked, 5'-phosphate)	PARP1	fluorescence microscopy	folded DNA	condensation	binds
AAAAAAAA (ssRNA)	KHDRBS2 50-160 (Homo sapiens, UniProt Q5VWX1)	protein microarray	RNA	–	binds
TTAACATGCTTCCAAAATACAAATTACAA (dsDNA)	NAC2 1-315 (Actinidia chinensis, UniProt A0A075EAR8)	EMSA	double-stranded DNA, one strand shown	–	binds
AGTTATATGCGTTTGATCATTTGTCAAAATTTAGTGAAACTTTAAAAT (dsDNA)	NLP3 1-938 (Oryza sativa, UniProt Q5NB82)	EMSA	double-stranded DNA, one strand shown	–	binds
TGTATTGCACATCGTGTAATATCGCGGTATAGTATTACACACCATGTAATACAGAGATGGC (dsDNA)	higB 1-92 (Proteus vulgaris, UniProt Q7A225)	EMSA	double-stranded DNA, one strand shown	–	no binding
TTTACAATTGAAAGTTCATGTATCTTCCTAATAAAAAGAACA (dsDNA)	NOR full length assumed (Solanum lycopersicum, UniProt A0A3Q7J5X6)	EMSA	double-stranded DNA, one strand shown	–	binds

Excerpt of the above:
Strand	target	assay	test system	setting	binding
AATTACTTAGAACTCTCACATTTAACCACGTAATGATCATATCAACGGTGTTATCCAT (dsDNA)	BZIP12 full length assumed (Oryza sativa, UniProt Q0JHF1)	EMSA	double-stranded DNA, one strand shown	–	no binding
AAAGAAAAAGGGATCGAACTTTTGACATTCGATCCCTTTTTCTGTAATCTGTTTCGTGCGTTCTTTGCTAAGATACAGACCCTAGACAAGTCATATCTTAGCAAAGGGTAGCTAGTAATGCAAGAGATTGCGAAGCGTCCCTACTACCAAAAAACCATTCAACGACGTAAACAGACAAACGCAAACCTTAAATTAGACG (dsDNA)	ihfA/ihfB 1-98; 1-95 (Aggregatibacter actinomycetemcomitans)	EMSA	double-stranded DNA, one strand shown	–	no binding
AUACAG (ssRNA)	SART3 697-786 (Homo sapiens, UniProt Q15020)	ITC	RNA	–	no binding
AAATGTAGATTGAAGATGTTGACTTTCTTCACCCCAGTCTATTA (dsDNA)	WRKY domain-containing protein 1-700 (Vitis vinifera, UniProt A0ABY9BSD8)	EMSA	double-stranded DNA, one strand shown	–	binds
GGGTTGCGGCCGCTTGGG (dsDNA)	PARP1	fluorescence polarization	double-stranded DNA, one strand shown	stopped-flow	binds
TTTTTTTTTTTTTTTTTTTT (ssDNA)	priA full length assumed (Escherichia coli, UniProt P17888)	UV photo-cross-linking	single-stranded DNA	no nucleotide	binds
